Measured values from different studies.
Numbered parts are unrelated; each lists some results of a single study. Positions count from the first letter of the parent shown.

Set 1
Target: Centromere-binding protein 1, full length, N-terminal tag (CBF1, Saccharomyces cerevisiae, UniProt P17106, residues 1-351)
Sequence of UniProt P17106 (whole entry, looked up): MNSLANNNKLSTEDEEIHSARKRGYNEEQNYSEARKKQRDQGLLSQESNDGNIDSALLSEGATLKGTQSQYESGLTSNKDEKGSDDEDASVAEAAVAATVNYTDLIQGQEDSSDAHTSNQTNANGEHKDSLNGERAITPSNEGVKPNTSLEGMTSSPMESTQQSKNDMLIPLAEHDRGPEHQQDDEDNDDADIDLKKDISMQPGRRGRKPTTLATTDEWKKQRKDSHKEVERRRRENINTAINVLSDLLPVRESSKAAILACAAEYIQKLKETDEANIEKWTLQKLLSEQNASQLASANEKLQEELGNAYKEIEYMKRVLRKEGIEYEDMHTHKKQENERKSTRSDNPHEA
Method: protein-binding microarray
Molecule type: double-stranded DNA, one strand shown
Matrix: in vitro
Tested at: 0.8 µM
Setting: whole 60-bp probe, no competitor
Reading: higher = stronger binding
Sequence	fluorescence intensity
CTAACGAAACACAACCACGTTCTTAAATCTCGATTCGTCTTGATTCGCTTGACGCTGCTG	625 a.u.
GAAAAGAACGCACATCAGCAGAATAATGGGAGGTAGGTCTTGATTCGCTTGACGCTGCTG	552 a.u.
CCTAACTACTATAAACCCGTGCAATAGCTTCGTACAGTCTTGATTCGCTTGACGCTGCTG	594 a.u.
GAAGTGGTGGGATATACCGTGGCAACGGATAGTTAGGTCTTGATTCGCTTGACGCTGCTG	512 a.u.
CTACTATGCACTGATGACGTCACTGTCAATCGCTTCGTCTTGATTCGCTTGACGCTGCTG	560 a.u.
GAATGACAAGACTGCCACGTTGATCGCTGCGCTTAGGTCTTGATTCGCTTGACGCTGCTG	541 a.u.
GAATTTCGCACGTTGCACGAGTCGCAATGAATATAGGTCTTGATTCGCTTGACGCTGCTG	717 a.u.
GAATACTCTATACAGCTGATAAACTCTGTCTAATAGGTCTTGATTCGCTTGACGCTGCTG	556 a.u.
GAAGCTCGCACTGCGCAGGTGACGGTAAAGAAATAGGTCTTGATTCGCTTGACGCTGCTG	882 a.u.
TGTACGAAGCTATGTGATCTTCATATAGTAGTTAGGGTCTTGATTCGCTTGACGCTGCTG	540 a.u.
CTATTGCGCTTGCGGCACATGTAATGTAGTTTCTTCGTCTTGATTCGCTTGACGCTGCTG	627 a.u.
CTAAATTGTTTTTATCAGGTGTTTCCCTATTTATTCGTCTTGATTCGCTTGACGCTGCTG	805 a.u.
CTATTATTTTTAGAACGTGTGACAAAGTTGTTTTTCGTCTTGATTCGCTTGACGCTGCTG	672 a.u.
GAACTATTACATTACAACGTGCATATAACAGAATAGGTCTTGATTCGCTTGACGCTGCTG	681 a.u.
GAAAGAAGAGGACATCATGTCTGCGGTTCCTGCTAGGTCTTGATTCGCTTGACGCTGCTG	492 a.u.
CCTAACTACTATAGTTCACGTGCATAGCTTCGTACAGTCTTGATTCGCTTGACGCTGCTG	4790 a.u.
CTACTTTACCGTCATGCACGTGCGCCGCGAAAATTCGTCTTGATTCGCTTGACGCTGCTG	11600 a.u.

Set 2
Target: CCNB3, cyclin fold, Cln2 fusion (human)
Method: yeast growth competition, sequencing
Matrix: yeast
Setting: weak parent motif
Reference: not given
Reading: higher = stronger binding
Starting sequence: FOXM1 docking peptide (human); PHLARPIKVESPP
Substitution	normalised enrichment score
P13A	-0.163
K8A	0.0349
V9A	-0.0197
H2A	-0.00804
P12A	-0.73
R5A	-0.249

Set 3
Target: UBE2J2 UBC core domain (UniProt Q8N2K1)
Method: yeast two-hybrid
Matrix: yeast
Setting: mostly zero background
Reference: not given
Reading: higher = stronger interaction
B1: NHLRC1 RING domain (UniProt Q6VVB1); chain MREAEISLLECKVCFEKFGHRQQRRPRNLSCGHVVCLACVAALAHPRTLALECPFCRRACRGCDTSD
B2: CBLL1 RING domain (UniProt Q75N03); chain GEKDDTPVHFCDKCGLPIKIYGRMIPCKHVFCYDCAILHEKKGDKMCPGCSDPVQRIEQCT
B3: MDM2 RING domain (UniProt Q00987); chain TQDKEESVESSLPLNAIEPCVICQGRPKNGCIVHGKTGHLMACFTCAKKLKKRNKPCPVCRQPIQMIVLTYFP
B4: UBE4B RING domain (UniProt O95155); chain KNARAEIDYSDAPDEFRDPLMDTLMTDPVRLPSGTIMDRSIILRHLLNSPTDPFNRQTLTESMLEPVPELKEQIQAWMREKQNSDH
B5: TRIM34 RING domain (UniProt Q9BYJ4); chain ILLNVQEEVTCPICLELLTEPLSLDCGHSLCRACITVSNKEAVTSMGGKSSCPVCGISYSFEHLQA
B6: MARCHF2 RING domain (UniProt Q9P0N8); chain RLLSTVIRALDTPSDGPFCRICHEGANGECLLSPCGCTGTLGAVHKSCLEKWLSSSNTSYCELCHTEFAVEKRPRPLTEWL
B7: ARIH1 RING domain (UniProt Q9Y4X5); chain NTRSSAQDMPCQICYLNYPNSYFTGLECGHKFCMQCWSEYLTTKIMEEGMGQTISCPAHGCDILVDDNTVM
B8: TRIM68 RING domain (UniProt Q6AZZ1); chain LVEAIVEEVACPICMTFLREPMSIDCGHSFCHSCLSGLWEIPGESQNWGYTCPLCRAPVQPRNLRP
B9: RFPL3 RING domain (UniProt O75679); chain MAALFQEASSCPVCSDYLEKPMSLECGCTVCLKCINSLQKEPHGEDLLCCCCSMVSQRNKIRP
B10: TRIM2 RING domain (UniProt Q9C040); chain VRQIDKQFLICSICLERYKNPKVLPCLHTFCERCLQNYIPAHSLTLSCPVCRQTSILPEKGV
B11: RNF32 RING domain (UniProt Q9H0A6); chain VQALRRETHECSICLAPLSAAGGQRVGAGRRSREMALLSCSHVFHHACLLALEEFSVGDRPPFHACPLCRSCYQKKILEC
Target sequence (chain): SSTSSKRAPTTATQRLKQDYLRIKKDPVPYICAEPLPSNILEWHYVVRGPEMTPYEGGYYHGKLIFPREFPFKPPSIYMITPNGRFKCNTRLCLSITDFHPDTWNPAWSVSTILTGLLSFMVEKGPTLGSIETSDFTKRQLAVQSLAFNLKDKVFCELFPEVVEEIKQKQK
Molecule	lacZ reporter activity
B1 (NHLRC1 RING domain)	0
B2 (CBLL1 RING domain)	0
B3 (MDM2 RING domain)	4290
B4 (UBE4B RING domain)	0
B5 (TRIM34 RING domain)	0
EDVLSKDAGECAICLEELQQGDTIARLPCLCIYHKGCIDEWFEVNRSCPEHPSD (ZNRF2 RING domain (UniProt Q8NHG8))	0
EIKDYKARLTCPCCNMRKKDAVLTKCFHVFCFECVKTRYDTRQRKCPKCNAAFGANDFHR (RNF20 RING domain (UniProt Q5VTR2))	0
AAQLLEEKLTCAICLGLYQDPVTLPCGHNFCGACIRDWWDRCGKACPECREPFPDGAELR (TRIM65 RING domain (UniProt Q6PJ69))	2430
B6 (MARCHF2 RING domain)	0
B7 (ARIH1 RING domain)	0
B8 (TRIM68 RING domain)	0
B9 (RFPL3 RING domain)	0
B10 (TRIM2 RING domain)	0
B11 (RNF32 RING domain)	0

Set 4
Target: ABI1, truncated, D143A, DHFR fusion (Arabidopsis thaliana)
Method: DHFR PCA, deep sequencing
Matrix: yeast
Setting: methotrexate growth selection, single substitutions
Added: (+)-ABA 4.8 µM
Reference: wild-type fitted maximum
Reading: higher = stronger binding
Starting sequence: PYL1, truncated, DHFR fusion (Arabidopsis thaliana); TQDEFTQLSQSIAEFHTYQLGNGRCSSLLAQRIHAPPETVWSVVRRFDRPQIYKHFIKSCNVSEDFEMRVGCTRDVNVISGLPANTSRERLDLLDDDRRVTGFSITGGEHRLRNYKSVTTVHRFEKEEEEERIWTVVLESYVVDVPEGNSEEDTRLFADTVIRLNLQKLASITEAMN
Substitution	relative binding score [%]
N149V	21
C60T	49.5
G21Q	75.4
F56H	-2.71
I12G	-2.59
E128V	61
E128C	76.6
R113E	52
Q19I	61.2

Set 5
Target: Ras GTPase-activating protein-binding protein 1, RRM domain (G3BP1, Homo sapiens, UniProt Q13283)
Sequence of UniProt Q13283 (whole entry, looked up): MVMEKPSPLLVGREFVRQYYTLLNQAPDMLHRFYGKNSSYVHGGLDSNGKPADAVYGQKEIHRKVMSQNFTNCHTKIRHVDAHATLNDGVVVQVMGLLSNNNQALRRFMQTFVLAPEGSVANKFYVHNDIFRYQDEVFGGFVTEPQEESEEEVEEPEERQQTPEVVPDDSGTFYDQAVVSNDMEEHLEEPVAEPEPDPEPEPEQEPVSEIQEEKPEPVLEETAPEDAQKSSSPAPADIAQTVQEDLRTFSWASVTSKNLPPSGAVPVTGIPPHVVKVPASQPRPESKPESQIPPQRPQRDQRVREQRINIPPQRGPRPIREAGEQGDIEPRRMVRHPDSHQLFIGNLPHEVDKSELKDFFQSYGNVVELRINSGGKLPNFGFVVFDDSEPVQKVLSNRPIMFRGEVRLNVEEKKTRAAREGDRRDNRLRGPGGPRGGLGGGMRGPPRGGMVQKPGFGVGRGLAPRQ
Method: RNA Bind-n-Seq
Molecule type: RNA
Matrix: in vitro
Tested at: 1 µM
Setting: whole 134-nt RNA, ends assumed
Added: 150 mM KCl
Reference: input library
Reading: higher = stronger binding
Sequence	log2 enrichment
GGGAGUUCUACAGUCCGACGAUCCACAGACAACACGCACCCACACAGACACAGAGGGAAGGGGUUGGGAUGGGGACAGGGUGCACAGCAGGGCGGGGUAGAACCCCAGCCCCUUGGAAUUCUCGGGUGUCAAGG	-0.471
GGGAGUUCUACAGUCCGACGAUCAAGUCCUGUGCUACACAUCGUAUGUACCGAAUCGGGAAAAAAAGGGAGGGUUUGGGAAAGUAUUAUGUUACGCCGUUCGGAUCUGCACUUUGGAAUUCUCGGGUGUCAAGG	0.439
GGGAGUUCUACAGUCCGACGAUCUCCUGUGCUACACAUCGUAUGUACCGAAUCGGGGUUUUUUGGGUUUUUUGGUUUUUUGGGAAAGUAUUAUGUUACGCCGUUCGGAUCUGCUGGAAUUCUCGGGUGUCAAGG	-0.158
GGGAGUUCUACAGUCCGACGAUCUGGCCCUGGUGGCAUGCGGGGAGGAAGAGGUGGCCUCAUGGAUCGUGGUGGUGCCGGUGGAAUGUUCAGAGGUGGCCGUGGUGGAGACAGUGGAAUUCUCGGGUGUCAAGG	1.07
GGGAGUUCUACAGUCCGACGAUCUUGGCGCAUGCGCCUAAAGCUGACGGGUUUGAAAUGGCUUCGAUGUUAGCCGGGACCCGACUCAGGUGAAGGUCUGGUCCCCGUAGUUGGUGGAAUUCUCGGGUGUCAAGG	-0.453
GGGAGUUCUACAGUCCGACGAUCAAGUCCUGUGCUACACAUCGUAUGUACCGAAUCGGGUGGGUUUUUUUGGGUUUGGGAAAGUAUUAUGUUACGCCGUUCGGAUCUGCACUUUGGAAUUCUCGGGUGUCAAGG	0.463
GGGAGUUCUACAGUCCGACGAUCCAAGUCCUGUGCUACACAUCGUAUGUACCGAAUCGGCCCCGGGCCCCGGCCCCGGGAAAGUAUUAUGUUACGCCGUUCGGAUCUGCACUUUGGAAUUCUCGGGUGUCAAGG	-0.8
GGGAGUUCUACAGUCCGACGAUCCACAGACAACACGCACCCACACAGACACAGAGGGAAGGGGUUCGGAUGGGGACAGGGUGCACAGCAGGGCGGGGUAGGACCCCAGCCCCUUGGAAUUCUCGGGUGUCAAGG	0.521
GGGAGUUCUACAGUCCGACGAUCACCAUGCAGGUGGGCAUCUUUGGGAAGUGGGGCAAGGGGGGGACAGGGAGGGGGGUAACACUUUGGGAACAGGUGGUCCCAGGUCGUUUCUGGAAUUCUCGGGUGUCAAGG	0.964
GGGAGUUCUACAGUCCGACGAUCAGUCCUGUGCUACACAUCGUAUGUACCGAAUCAAACCCCCAAACCCAAACCCCCAAAAAAGUAUUAUGUUACGCCGUUCGGAUCUGCACUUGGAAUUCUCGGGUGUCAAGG	-0.21
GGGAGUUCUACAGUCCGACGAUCUUGUGGUAUUUUAUUUACUUAUUUUUUUAAAUCUUCCAUUACAGCCAUGCCUUUCUUGGACAUCCAGAAAAGGUUCGGCCUUAACAUAGAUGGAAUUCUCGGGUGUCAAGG	-1.24
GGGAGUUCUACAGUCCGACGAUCUCCUAGUCCUAGGAAAACUCCAGUUGCCAGUGAUCAACGCCGUAGGUCCUGCAAAACAGCCCCUGCUUCCAGCAGCAAAUCUCAGACAGAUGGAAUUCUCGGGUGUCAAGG	-0.0706
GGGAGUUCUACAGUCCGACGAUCUAACUUUAGAGGAGGAUCUGAUGGAUAUGGCAGUGGUCGUGGAUUUGGGGAUGGCUAUAAUGGGUAUGGAGGAGGACCUGGAGGUGGCAAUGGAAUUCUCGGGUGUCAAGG	-0.628
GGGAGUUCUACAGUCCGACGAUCAAGUCCUGUGCUACACAUCGUAUGUACCGAAUCGGAGGAAAAAAAGGUUUUUUUGGAAAGUAUUAUGUUACGCCGUUCGGAUCUGCACUUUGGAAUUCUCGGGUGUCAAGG	-0.2

Repeated from above (set 5):
Sequence	log2 enrichment
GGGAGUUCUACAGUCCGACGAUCCACAGACAACACGCACCCACACAGACACAGAGGGAAGGGGUUCGGAUGGGGACAGGGUGCACAGCAGGGCGGGGUAGGACCCCAGCCCCUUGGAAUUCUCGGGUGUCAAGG	0.521
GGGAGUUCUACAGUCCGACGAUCUCCUGUGCUACACAUCGUAUGUACCGAAUCGGGGUUUUUUGGGUUUUUUGGUUUUUUGGGAAAGUAUUAUGUUACGCCGUUCGGAUCUGCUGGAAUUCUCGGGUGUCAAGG	-0.158
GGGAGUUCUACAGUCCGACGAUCAGUCCUGUGCUACACAUCGUAUGUACCGAAUCAAACCCCCAAACCCAAACCCCCAAAAAAGUAUUAUGUUACGCCGUUCGGAUCUGCACUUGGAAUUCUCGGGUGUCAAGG	-0.21
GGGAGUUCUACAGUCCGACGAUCAAGUCCUGUGCUACACAUCGUAUGUACCGAAUCGGGUGGGUUUUUUUGGGUUUGGGAAAGUAUUAUGUUACGCCGUUCGGAUCUGCACUUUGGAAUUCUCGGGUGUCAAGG	0.463
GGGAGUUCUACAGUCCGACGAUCUUGUGGUAUUUUAUUUACUUAUUUUUUUAAAUCUUCCAUUACAGCCAUGCCUUUCUUGGACAUCCAGAAAAGGUUCGGCCUUAACAUAGAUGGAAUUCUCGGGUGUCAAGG	-1.24
